Measured values gathered from unrelated publications.
± marks the error that the study gave.
uidA: Beta-glucuronidase (uidA, Escherichia coli, UniProt P05804)
KCNJ13 M125R: Inward rectifier potassium channel 13 (KCNJ13, Homo sapiens, UniProt O60928, M125R)
hdac6 CD2 catalytic domain: Histone deacetylase 6, CD2 catalytic domain (hdac6, Danio rerio, UniProt F8W4B7)
SUMO-activating enzyme subunit 2 with SAE1: SUMO-activating enzyme subunit 2, with SAE1 (Homo sapiens, UniProt Q9UBT2)
CDPK1: Calmodulin-domain protein kinase 1 (CDPK1, Toxoplasma gondii, UniProt Q9BJF5)
cyp121: Mycocyclosin synthase (cyp121, Mycobacterium tuberculosis, UniProt P9WPP7)

Chains of the proteins cited; added tags and fusions are not shown. Residues count along the entry.
UniProt O60928, whole entry M125R: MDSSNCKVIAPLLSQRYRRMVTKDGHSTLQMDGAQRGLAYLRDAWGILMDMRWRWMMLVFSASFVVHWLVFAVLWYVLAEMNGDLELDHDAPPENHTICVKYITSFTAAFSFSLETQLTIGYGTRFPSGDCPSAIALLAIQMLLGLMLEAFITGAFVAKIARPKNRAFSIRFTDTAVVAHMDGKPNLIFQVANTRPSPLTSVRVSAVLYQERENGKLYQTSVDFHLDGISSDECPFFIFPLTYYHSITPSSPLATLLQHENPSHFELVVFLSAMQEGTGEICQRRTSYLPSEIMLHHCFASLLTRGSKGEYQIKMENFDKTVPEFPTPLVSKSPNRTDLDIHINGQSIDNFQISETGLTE
UniProt O39929, 2418-3008 limits assumed: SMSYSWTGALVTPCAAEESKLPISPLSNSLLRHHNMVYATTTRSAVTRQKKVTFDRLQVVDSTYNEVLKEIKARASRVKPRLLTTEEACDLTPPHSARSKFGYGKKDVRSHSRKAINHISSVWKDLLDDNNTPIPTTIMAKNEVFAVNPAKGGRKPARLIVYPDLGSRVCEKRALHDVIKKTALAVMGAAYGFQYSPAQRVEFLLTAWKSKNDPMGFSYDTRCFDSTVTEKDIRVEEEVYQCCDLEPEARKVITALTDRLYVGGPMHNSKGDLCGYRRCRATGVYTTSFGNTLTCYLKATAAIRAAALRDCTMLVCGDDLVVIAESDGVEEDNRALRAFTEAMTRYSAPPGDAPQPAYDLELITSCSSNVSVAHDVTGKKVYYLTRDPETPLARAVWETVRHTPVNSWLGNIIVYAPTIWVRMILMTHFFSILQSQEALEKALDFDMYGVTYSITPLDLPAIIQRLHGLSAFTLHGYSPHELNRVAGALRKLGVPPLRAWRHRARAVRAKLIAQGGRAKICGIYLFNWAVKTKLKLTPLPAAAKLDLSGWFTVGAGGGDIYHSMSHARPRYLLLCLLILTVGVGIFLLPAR
UniProt A0A290U7L2, 1-497: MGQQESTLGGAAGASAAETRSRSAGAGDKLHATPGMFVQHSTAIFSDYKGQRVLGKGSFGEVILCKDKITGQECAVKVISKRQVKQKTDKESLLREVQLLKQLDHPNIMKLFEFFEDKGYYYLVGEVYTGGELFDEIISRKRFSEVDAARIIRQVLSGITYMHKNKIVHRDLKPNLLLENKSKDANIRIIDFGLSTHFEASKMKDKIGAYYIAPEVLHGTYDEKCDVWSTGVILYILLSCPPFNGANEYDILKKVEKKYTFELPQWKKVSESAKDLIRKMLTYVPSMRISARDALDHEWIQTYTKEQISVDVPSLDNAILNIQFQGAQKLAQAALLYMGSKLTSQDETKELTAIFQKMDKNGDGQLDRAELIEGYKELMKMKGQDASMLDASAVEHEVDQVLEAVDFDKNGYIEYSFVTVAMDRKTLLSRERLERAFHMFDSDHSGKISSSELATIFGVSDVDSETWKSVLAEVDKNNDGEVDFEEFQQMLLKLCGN
UniProt Q13393, whole entry: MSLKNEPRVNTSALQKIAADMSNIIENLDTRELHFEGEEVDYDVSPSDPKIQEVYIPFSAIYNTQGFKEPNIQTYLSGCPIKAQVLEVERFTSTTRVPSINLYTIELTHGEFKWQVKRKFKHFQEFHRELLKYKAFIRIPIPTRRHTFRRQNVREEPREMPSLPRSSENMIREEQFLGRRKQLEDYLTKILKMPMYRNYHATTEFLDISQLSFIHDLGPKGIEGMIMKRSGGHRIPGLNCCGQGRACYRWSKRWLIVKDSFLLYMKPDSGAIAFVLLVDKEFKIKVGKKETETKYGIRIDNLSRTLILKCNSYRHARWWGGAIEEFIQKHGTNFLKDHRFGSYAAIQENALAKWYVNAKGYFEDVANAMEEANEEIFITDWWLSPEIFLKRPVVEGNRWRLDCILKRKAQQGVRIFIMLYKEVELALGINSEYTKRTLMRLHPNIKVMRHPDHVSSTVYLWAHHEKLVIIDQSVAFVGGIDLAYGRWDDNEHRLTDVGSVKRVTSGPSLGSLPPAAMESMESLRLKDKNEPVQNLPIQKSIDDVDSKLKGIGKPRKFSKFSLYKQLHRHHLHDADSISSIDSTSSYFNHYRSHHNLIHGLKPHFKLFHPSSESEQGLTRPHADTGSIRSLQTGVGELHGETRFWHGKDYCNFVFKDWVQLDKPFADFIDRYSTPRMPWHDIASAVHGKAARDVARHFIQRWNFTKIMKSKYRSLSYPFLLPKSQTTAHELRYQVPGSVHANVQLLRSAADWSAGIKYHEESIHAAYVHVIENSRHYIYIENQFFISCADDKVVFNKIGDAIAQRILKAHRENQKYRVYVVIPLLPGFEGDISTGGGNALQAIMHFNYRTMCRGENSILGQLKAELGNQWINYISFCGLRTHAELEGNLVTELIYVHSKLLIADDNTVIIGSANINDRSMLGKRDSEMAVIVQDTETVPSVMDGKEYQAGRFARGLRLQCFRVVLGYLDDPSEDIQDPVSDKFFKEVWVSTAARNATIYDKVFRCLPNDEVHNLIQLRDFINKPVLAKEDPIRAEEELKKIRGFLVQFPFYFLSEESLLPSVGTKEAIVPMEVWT
UniProt Q07812, whole entry: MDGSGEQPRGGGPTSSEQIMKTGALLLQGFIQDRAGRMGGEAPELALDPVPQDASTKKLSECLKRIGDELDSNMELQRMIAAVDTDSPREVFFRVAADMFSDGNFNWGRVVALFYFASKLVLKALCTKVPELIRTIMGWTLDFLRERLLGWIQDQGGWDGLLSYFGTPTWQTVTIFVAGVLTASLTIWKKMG
UniProt O94804, 36-294 limits assumed: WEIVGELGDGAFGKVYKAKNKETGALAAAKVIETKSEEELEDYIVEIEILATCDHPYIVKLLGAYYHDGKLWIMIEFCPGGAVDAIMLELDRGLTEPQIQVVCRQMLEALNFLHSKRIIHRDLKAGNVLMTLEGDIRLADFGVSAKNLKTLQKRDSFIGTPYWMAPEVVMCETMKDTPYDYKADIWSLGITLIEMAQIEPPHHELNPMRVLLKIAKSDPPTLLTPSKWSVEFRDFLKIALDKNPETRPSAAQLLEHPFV
UniProt Q00960, 27-1482 limits assumed: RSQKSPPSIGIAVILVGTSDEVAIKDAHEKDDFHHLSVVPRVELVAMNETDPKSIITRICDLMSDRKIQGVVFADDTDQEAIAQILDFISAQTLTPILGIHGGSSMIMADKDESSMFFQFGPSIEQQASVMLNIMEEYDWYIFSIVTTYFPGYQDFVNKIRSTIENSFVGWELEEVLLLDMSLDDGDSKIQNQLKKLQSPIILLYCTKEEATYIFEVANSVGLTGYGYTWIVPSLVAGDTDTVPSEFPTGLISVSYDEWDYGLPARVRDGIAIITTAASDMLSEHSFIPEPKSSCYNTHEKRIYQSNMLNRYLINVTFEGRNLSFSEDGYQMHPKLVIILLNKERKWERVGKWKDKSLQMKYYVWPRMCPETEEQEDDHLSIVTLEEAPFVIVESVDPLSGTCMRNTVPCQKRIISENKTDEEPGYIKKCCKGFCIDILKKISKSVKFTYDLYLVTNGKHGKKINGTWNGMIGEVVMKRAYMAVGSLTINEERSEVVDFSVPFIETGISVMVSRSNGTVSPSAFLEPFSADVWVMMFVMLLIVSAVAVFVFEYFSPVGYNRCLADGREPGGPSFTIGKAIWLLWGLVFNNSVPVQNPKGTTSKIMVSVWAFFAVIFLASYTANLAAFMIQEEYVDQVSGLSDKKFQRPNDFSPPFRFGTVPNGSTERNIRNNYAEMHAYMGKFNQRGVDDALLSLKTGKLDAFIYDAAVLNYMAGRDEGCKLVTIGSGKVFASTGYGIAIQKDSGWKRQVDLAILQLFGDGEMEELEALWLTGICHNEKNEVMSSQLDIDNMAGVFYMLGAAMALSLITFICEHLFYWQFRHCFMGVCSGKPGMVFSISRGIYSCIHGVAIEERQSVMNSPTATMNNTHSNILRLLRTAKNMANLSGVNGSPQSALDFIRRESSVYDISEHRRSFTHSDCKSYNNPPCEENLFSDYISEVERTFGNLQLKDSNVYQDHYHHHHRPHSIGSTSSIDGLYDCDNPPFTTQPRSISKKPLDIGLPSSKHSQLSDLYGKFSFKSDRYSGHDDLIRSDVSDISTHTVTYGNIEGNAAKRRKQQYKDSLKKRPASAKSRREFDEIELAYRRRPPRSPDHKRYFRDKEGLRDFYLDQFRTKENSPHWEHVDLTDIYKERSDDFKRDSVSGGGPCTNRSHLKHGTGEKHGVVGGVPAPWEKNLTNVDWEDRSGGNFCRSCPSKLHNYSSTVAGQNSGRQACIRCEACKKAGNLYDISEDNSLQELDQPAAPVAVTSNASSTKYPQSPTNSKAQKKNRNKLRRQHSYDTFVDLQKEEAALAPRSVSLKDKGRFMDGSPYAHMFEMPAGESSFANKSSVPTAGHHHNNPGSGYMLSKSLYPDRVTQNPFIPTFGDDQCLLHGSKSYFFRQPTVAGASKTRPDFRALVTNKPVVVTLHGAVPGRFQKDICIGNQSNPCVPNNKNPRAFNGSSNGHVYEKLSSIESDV
UniProt P19650, whole entry: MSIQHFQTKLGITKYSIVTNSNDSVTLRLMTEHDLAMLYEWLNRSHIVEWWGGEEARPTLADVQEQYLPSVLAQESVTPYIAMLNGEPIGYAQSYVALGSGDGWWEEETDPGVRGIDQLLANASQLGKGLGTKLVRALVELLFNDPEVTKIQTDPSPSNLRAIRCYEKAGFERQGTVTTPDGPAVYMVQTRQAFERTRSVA
UniProt O43148, whole entry: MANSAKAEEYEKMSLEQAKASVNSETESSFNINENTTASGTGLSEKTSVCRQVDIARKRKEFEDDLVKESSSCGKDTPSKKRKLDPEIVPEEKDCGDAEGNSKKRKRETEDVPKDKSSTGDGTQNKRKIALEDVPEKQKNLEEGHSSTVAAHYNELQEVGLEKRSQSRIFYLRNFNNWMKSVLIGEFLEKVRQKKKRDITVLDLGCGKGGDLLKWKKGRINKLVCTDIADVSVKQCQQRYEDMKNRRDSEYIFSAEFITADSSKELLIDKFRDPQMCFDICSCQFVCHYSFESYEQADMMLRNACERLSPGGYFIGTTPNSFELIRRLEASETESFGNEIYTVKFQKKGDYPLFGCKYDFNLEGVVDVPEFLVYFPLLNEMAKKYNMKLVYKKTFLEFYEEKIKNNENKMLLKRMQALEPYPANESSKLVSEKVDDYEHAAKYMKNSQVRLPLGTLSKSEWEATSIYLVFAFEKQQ
UniProt Q86U44, 2-580 limits assumed: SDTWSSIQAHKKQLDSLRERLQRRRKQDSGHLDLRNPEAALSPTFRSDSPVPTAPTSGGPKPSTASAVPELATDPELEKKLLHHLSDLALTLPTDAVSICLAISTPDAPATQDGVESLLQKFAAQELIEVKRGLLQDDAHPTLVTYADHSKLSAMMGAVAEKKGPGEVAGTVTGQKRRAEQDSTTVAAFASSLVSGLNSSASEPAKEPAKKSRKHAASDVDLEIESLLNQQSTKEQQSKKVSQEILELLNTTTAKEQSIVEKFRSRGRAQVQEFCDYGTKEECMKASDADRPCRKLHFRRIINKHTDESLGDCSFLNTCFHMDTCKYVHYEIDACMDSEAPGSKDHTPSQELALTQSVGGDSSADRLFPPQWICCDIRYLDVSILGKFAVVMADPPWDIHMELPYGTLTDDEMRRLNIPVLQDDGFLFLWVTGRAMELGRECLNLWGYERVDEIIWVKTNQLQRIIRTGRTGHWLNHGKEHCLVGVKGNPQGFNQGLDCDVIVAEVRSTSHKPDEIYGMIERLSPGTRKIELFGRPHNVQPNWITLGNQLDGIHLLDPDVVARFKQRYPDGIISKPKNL

Compound	tested on	test	system	conditions	quantity	result
C/C=C(\C)C(=O)N[C@@H](CCC(N)=O)C(=O)N[C@@H]1C(=O)N[C@@H](CCC(N)=O)C(=O)N[C@H]2CC[C@@H](O)N(C2=O)[C@@H](Cc2ccccc2)C(=O)N(C)[C@@H](Cc2ccc(O)cc2)C(=O)N[C@@H](C)C(=O)O[C@@H]1C (single isomer, unassigned)	Chymotrypsinogen A (Bos taurus, UniProt P00766)	inhibitor	–	10 min preincubation, pH 7.6, 37 °C, DMSO solvent, together with: N-succinyl-Phe-p-nitroanilide	IC50	5 µg/mL
c1nc(N2CCNCC2)c2sc3nc(N4CCOCC4)ccc3c2n1	uidA	enzyme activity, inhibitor	–	–	IC50	0.02 ± 0.01 µM
O=c1ccn([C@@H]2O[C@H](COP(=O)(O)OP(=O)(O)OP(=O)(O)O)[C@@H](O)[C@]2(F)Br)c(=O)[nH]1	Genome polyprotein, NS5B polymerase (Hepatitis C virus genotype 4a, UniProt O39929)	polymerase activity, inhibitor	Hepatitis C virus, genotype 4a	–	IC50	1.8 µM
CCOc1ccc2cc(-c3nn(C(C)(C)C)c(N)c3C(N)=O)cnc2c1	Calcium-dependent protein kinase 1 (Besnoitia besnoiti, UniProt A0A290U7L2)	enzyme activity, inhibitor, Kinase-Glo luminescence	–	90 min, 30 °C, together with: 10 µM ATP	IC50	0.012 µM
O=C(COC(=O)CNC(=O)c1ccccc1Cl)Nc1cc(C(F)(F)F)ccc1Cl	Cruzipain (Trypanosoma cruzi, UniProt P25779)	enzyme activity, inhibitor	–	–	IC50	0.22 µM
C[C@H](CS)C(=O)N[C@@H](Cc1c[nH]c2ccccc12)C(=O)O	Enterobacter aerogenes	–	IMP-1 producing	10 µM, together with: meropenem	MIC of meropenem	32 µg/mL
O=C(O)C(Cc1nn[nH]n1)[C@@H]1CCN[C@H]1C(=O)O (relative stereo)	native AMPA receptor, rat	binding	rat cortical synaptosomes	together with: [3H]AMPA	IC50	> 100 µM
CCCCCCCCCCCN1[C@@H](COP(=O)(O)CP(=O)(O)O)[C@]1(C)CC/C=C(\C)CCC=C(C)C (relative stereo)	Squalene synthase ERG9 (Saccharomyces cerevisiae, UniProt P29704)	enzyme activity, inhibitor	–	pH 7.2, tetrabutylammonium salt, together with: 100 µM [3H]FPP, no added pyrophosphate	IC50	no inhibition
Cc1cccc(C(=O)NC2CCN(Cc3cc(Cl)c4cccnc4c3O)CC2)c1	KCNJ13 M125R	ion current, inhibitor, thallium flux	T-REx-HEK293	–	IC50	4.2 µM
O=C(NO)c1cc(F)cc(F)c1F	hdac6 CD2 catalytic domain	enzyme activity, inhibitor, fluorogenic	–	30 min, together with: Ac-RHK(Ac)K(Ac)-AMC	IC50	4.6 ± 0.5 µM
CCC[C@@H](Nc1ccccc1)C12C=CC(O1)C(C(=O)OC)=C2C(=O)OC (stereo partly drawn)	SUMO-activating enzyme subunit 2 with SAE1	SUMOylation, inhibitor, AlphaScreen	–	together with: SUMO1-RanGAP1 conjugation	IC50	0.84 µM
N#Cc1ccc(Sc2cc(C(N)=O)c3ccccc3n2)cc1	CDPK1	kinase activity, inhibitor, ELISA	–	together with: syntide-2 substrate, ATP 25 µM	IC50	> 20 µM
CNCc1ccc(-c2ncc(OCC3CCNCC3)nc2-c2ccc(-c3ccoc3)cc2)cc1	Genome polyprotein, NS2B-NS3 protease (pol, Dengue virus type 3, UniProt Q6YMS4)	enzyme activity, inhibitor	–	dengue virus type 3 NS2B-NS3 protease	IC50	0.53 ± 0.01 µM
COC(=O)C1=C(C(=O)OC)C2([C@H](C)Nc3ccc(Cl)cc3)C=CC1O2 (stereo partly drawn)	SUMO-activating enzyme subunit 2 with SAE1	SUMOylation, inhibitor, AlphaScreen	–	together with: SUMO1-RanGAP1 conjugation	IC50	11.3 µM
O=C(NC1CCN(Cc2cc(Cl)c3cccnc3c2O)CC1)c1cccc(Br)c1	KCNJ13 M125R	ion current, inhibitor, thallium flux	T-REx-HEK293	–	IC50	4 µM
O=C(NO)c1ccc(F)cc1	hdac6 CD2 catalytic domain	enzyme activity, inhibitor, fluorogenic	–	30 min, together with: Ac-RHK(Ac)K(Ac)-AMC	IC50	2.1 ± 0.2 µM
O=C(NCCN1CCC2(CC1)NCNC2=O)c1ccc2ccccc2c1	Phospholipase D1 (Homo sapiens, UniProt Q13393)	enzyme activity, cell-based	–	–	IC50	> 30 µM
CN1CCN(CC(O)CN2c3ccccc3Sc3ccccc32)CC1 (stereo not drawn)	Apoptosis regulator BAX (BAX, Homo sapiens, UniProt Q07812)	membrane permeabilization, inhibitor	ANTS/DPX liposomes	400 nM BAX, together with: 30 nM tBID	IC50	7.9 µM
NCCNCCSc1ccccc1	–	–	Swiss Albino mouse, female	oral, 600 mg/kg, single dose, non-compartmental	apparent volume of distribution (Vz/F)	102 L/kg
Cc1cnc(Nc2ccc(N3CCN(C)CC3)cc2)nc1Nc1cccc(NS(=O)(=O)C(C)(C)C)c1	Bromodomain-containing protein 4, BD1 (BRD4, Homo sapiens, UniProt O60885)	–	–	–	IC50	0.105 µM
COc1cc(Nc2ncnc(-c3cccnc3Nc3cc(NC(=O)c4cccc(C(F)(F)F)c4)ccc3C)n2)cc(OC)c1OC	Serine/threonine-protein kinase 10 (STK10, Homo sapiens, UniProt O94804)	enzyme activity, inhibitor	–	catalytic domain	IC50	< 0.02 µM

Compound	tested on	test	system	conditions	quantity	result
COc1ccc(Sc2cc(C(=O)N3Cc4ccccc4C3)ccc2O)cc1OC	Heat shock protein HSP 90-beta (HSP90AB1, Homo sapiens, UniProt P08238)	binding, fluorescence polarization	–	together with: FITC-geldanamycin tracer	IC50	11.6 ± 1.07 µM
CC(C)Cc1cc(C(=O)O)nc(O)n1	Metallo-beta-lactamase VIM-2 (VIM-2, Escherichia coli, UniProt Q5U7L7)	–	–	10 min preincubation, together with: FC5 fluorogenic substrate	IC50	> 1000 µM
N=C(N)c1ccc(NCCCCCNc2ccc(C(=N)N)cc2)cc1	Grin1/Grin2a/Grin2b, MK-801 channel binding site (Rattus norvegicus, UniProt P35439+Q00959+Q00960)	–	–	pH 7	IC50	3.1 ± 0.11 µM
Cc1cnccc1C(=O)Nc1nn(Cc2ccc(Cl)cc2Cl)c2ccccc12	Calcium release-activated calcium channel protein 1, with STIM1 (Rattus norvegicus, UniProt Q5M848)	Ca2+ influx, inhibitor	RBL-2H3	together with: thapsigargin 1 µM	IC50	> 30 µM
COc1cccc(Sc2cc(C(N)=O)c3ccccc3n2)c1	CDPK1	kinase activity, inhibitor, ELISA	–	together with: syntide-2 substrate, ATP 25 µM	IC50	> 20 µM
Oc1c(CN2CCC(NCc3ccccc3)CC2)cc(Cl)c2cccnc12	KCNJ13 M125R	ion current, inhibitor, thallium flux	T-REx-HEK293	–	IC50	12.4 µM
COC(=O)C1=C(C(=O)OC)C2([C@H](C)Nc3ccccc3)C=CC1O2 (stereo partly drawn)	SUMO-activating enzyme subunit 2 with SAE1	SUMOylation, inhibitor, AlphaScreen	–	together with: SUMO1-RanGAP1 conjugation	IC50	23.7 µM
NC[C@@H](NC[C@@H]1CCCN1C[C@@H](CO)NC[C@@H](NCCc1ccc(Cl)c(Cl)c1)c1ccccc1)c1ccccc1	Aminoglycoside N(6')-acetyltransferase type 1 (aacA4, Klebsiella pneumoniae, UniProt P19650)	acetyltransferase activity, inhibitor	–	–	IC50	6.5 µM
[2H]c1c([2H])c(S(=O)(=O)N2CCC(F)(C(=O)Nc3ccc4cc(C(=O)O)ccc4c3)CC2)c(C([2H])([2H])[2H])c([2H])c1C([2H])([2H])[2H]	Bifunctional epoxide hydrolase 2 (EPHX2, Homo sapiens, UniProt P34913)	–	–	pH 7.0, 30 °C, together with: CMNPC substrate 5 µM	IC50	1.46 µM
c1ccc(-c2ccc(Cn3ccnc3)o2)cc1	cyp121	–	–	racemate	Kd	34 µM
CO[C@H]1[C@H](O[C@H]([C@H]2O[C@@H](n3ccc(=O)[nH]c3=O)[C@H](O)[C@@H]2O)[C@H](NCCCNC(=O)[C@@H](NC(=O)[C@@H](NC(=O)N[C@H](C(=O)O)C(C)C)[C@@H]2CCNC(=N)N2)[C@@H](OC(=O)CCCCCCCCCCCCN(O)C(=N)N)C(C)C)C(N)=O)O[C@H](CN)[C@H]1O	MurX (Mycolicibacterium smegmatis)	enzyme activity, inhibitor	P-60 membrane fraction	–	IC50	0.015 ± 0.005 µM
Nc1c(S(=O)(=O)Oc2ccccc2NC(=O)Cc2c[nH]c3ccccc23)ccc2ccccc12	Ectonucleotide pyrophosphatase/phosphodiesterase family member 3 (Homo sapiens, UniProt O14638)	–	–	together with: p-nitrophenyl thymidine 5′-monophosphate	IC50	1.02 ± 0.004 µM
COc1ccc(CN2CCN(C(c3ccc(F)cc3)c3ccc(F)cc3)CC2)c(OC)c1OC	mRNA cap guanine-N(7) methyltransferase (RNMT, Homo sapiens, UniProt O43148)	enzyme activity, inhibitor	–	–	IC50	13.7 ± 0.8 µM
O=C(NC1CCN(Cc2cc(Cl)c3cccnc3c2O)CC1)C1CCCCC1	KCNJ13 M125R	ion current, inhibitor, thallium flux	T-REx-HEK293	–	IC50	9.6 µM
O=C(c1ccc(O)c(Sc2ccccc2)c1)N1Cc2ccccc2C1	Heat shock protein HSP 90-alpha (HSP90AA1, Homo sapiens, UniProt P07900)	binding, fluorescence polarization	–	together with: FITC-geldanamycin	IC50	~4.8 µM
Cc1ccc(N=Nc2c(O)c(C(=O)O)cc3ccccc23)c(S(=O)(=O)O)c1	Bcl-2-related protein A1 (Mus musculus, UniProt Q07440, C113S/P104K)	binding, inhibitor, fluorescence polarization competition	–	3 µM Bfl-1/A1 protein, together with: 375 nM FITC-Noxa peptide	IC50	387 µM
c1cc2c(nc1N1CCOCC1)sc1c(N3CCNCC3)nnnc12	uidA	enzyme activity, inhibitor	–	–	IC50	0.03 ± 0.02 µM
CCC(c1ccc(-c2ccc(F)cc2)cc1)n1ccnc1 (stereo not drawn)	cyp121	binding	–	–	Kd	10.1 ± 1.5 µM
COc1ccc2c(=O)oc3c(OC)cc(CCN4CCCCC4)c4c(=O)oc1c2c34	Toll-like receptor 2 (TLR2, Homo sapiens, UniProt O60603)	reporter gene, antagonist, SEAP reporter	HEK-Blue hTLR2 cells	24 h, together with: Pam3CSK4 100 ng/mL	IC50	1.7 ± 0.15 µM
COC(=O)C1=C(C(=O)OC)C2(C(Cc3ccc(OC(F)(F)F)cc3)Nc3ccccc3)C=CC1O2 (stereo not drawn)	SUMO-activating enzyme subunit 2 with SAE1	SUMOylation, inhibitor, AlphaScreen	–	together with: SUMO1-RanGAP1 conjugation	IC50	0.92 µM
COc1cc2nc(-c3ccc(N)cc3)nc(NCCSC[C@H]3O[C@@H](n4cnc5c(N)ncnc54)[C@H](O)[C@@H]3O)c2cc1OC	N6-adenosine-methyltransferase catalytic subunit, with METTL14 (METTL3, Homo sapiens, UniProt Q86U44)	methyltransferase activity, inhibitor, MTase-Glo	–	together with: RNA substrate	IC50	7.4 µM

Excerpt of the above:
Compound	tested on	test	system	conditions	quantity	result
O=C(NC1CCN(Cc2cc(Cl)c3cccnc3c2O)CC1)C1CCCCC1	KCNJ13 M125R	ion current, inhibitor, thallium flux	T-REx-HEK293	–	IC50	9.6 µM
O=C(c1ccc(O)c(Sc2ccccc2)c1)N1Cc2ccccc2C1	Heat shock protein HSP 90-alpha (HSP90AA1, Homo sapiens, UniProt P07900)	binding, fluorescence polarization	–	together with: FITC-geldanamycin	IC50	~4.8 µM
Cc1ccc(N=Nc2c(O)c(C(=O)O)cc3ccccc23)c(S(=O)(=O)O)c1	Bcl-2-related protein A1 (Mus musculus, UniProt Q07440, C113S/P104K)	binding, inhibitor, fluorescence polarization competition	–	3 µM Bfl-1/A1 protein, together with: 375 nM FITC-Noxa peptide	IC50	387 µM
